Results collected from several papers.
Parts stem from different laboratories: compare values within a part only. Substitutions count along the parent as printed.

Set 1
Target: Interferon regulatory factor 5, full length, phosphomimetic (IRF5, Homo sapiens, UniProt Q13568-2, residues 1-514, K96S/S451D/S453D/S456D/S462D)
Method: protein-binding microarray
Form: double-stranded DNA, one strand shown
Sample: in vitro
Concentration: 250 nM
Setting: 60-bp whole probe
With: salmon DNA 0.4 mg/ml
Relative to: random background probes
Direction: higher = stronger binding
Constant ends, left off below: GCCTAGCAC … GTCTTGATTCGCTTGACGCTGCTG
The log fluorescence of `TCATTTTAAAGTTTCAGACTGTGCTAG` is reported as 1.11 z-score.
`CAAACACTAGTTTTTACTTTGTGCTAG` gave a log fluorescence of 0.404 z-score.
With `TCACATCTGGGTATTTTACTGTGCTAG` the log fluorescence was 0.342 z-score.
The log fluorescence of `TTAGCTATCGACTTTCGGTTAGTGCTA` is reported as 10.1 z-score.
For `TTAGAACTGGGGTATAGATTAGTGCTA`, the log fluorescence was -0.0734 z-score.
With `GGATGTGTCTTAAATAGGGGAGTGCTA` the log fluorescence was -0.102 z-score.
With `AGTCTTCTCCTCTAGGTTCTCGTGCTA` the log fluorescence was 0.131 z-score.
The log fluorescence of `GACGCACTGGGGTATCGGGACGTGCTA` is reported as 0.0733 z-score.
The log fluorescence of `ATAGGACTGCTTCTCCTTTAGTGCTAG` is reported as -0.29 z-score.
`TCATTATTTTTTTTATTACTGTGCTAG` has a log fluorescence of 1.25 z-score.
`GACGGTTACGGGTATCGGGACGTGCTA` has a log fluorescence of 0.599 z-score.
`TTAGGTATCGGCTTTCGGTTAGTGCTA` has a log fluorescence of 8.35 z-score.
With `TTAGGTCTCCTTTTCCTCTAGTGCTAG` the log fluorescence was 0.217 z-score.
For `TTAGATATAAGTCTCGATTAGTGCTAG`, the log fluorescence was 1.06 z-score.
`TTAGATATAGGGTTTCGATTAGTGCTA` has a log fluorescence of 5.21 z-score.
For `GACGGGTTCCTTTCCCTGACGTGCTAG`, the log fluorescence was 0.235 z-score.
`CTGGTGCTCATCTGTCATGTTGTGCTA` has a log fluorescence of -0.202 z-score.

Set 2
Target: Histone acetyltransferase KAT6A, winged helix 2, GST fusion (KAT6A, Homo sapiens, UniProt Q92794, residues 85-181)
Method: protein binding microarray
Form: double-stranded DNA, one strand shown
Sample: in vitro
Concentration: not given
Setting: 8-mer, flanks averaged, mean of 2 arrays, mostly near background
Relative to: not given
Direction: higher = stronger binding
Target sequence (chain): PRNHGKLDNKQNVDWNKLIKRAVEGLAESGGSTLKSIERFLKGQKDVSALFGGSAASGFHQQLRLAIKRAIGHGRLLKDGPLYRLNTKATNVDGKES
With `CTCTCCGA` the E-score was 0.0919.
For `ATGCCTTA`, the E-score was -0.227.
With `GCAAACAC` the E-score was -0.0104.
With `ACTATCCG` the E-score was 0.0912.
`ACTAAAGA` has an E-score of -0.0389.
`ACTAATGG` gave an E-score of -0.14.
For `CGAAAATA`, the E-score was 0.068.
With `AAATTTGC` the E-score was 0.0582.
The E-score of `GATTTATA` is reported as 0.193.
`ACTAACTC` has an E-score of -0.0705.
`AGTAGAAT` has an E-score of -0.0931.
`AGAGAGTA` has an E-score of -0.14.
With `GATAACCA` the E-score was -0.0998.
With `AACCGCTC` the E-score was 0.0179.
`ACATCAGT` gave an E-score of -0.172.
With `ATAGTGGG` the E-score was -0.0978.

Set 3
Target: CCNA1, cyclin fold, Cln2 fusion (human)
Method: yeast growth competition, sequencing
Sample: yeast
Setting: weak parent motif
Relative to: not given
Direction: higher = stronger binding
Parent: E2F3 docking peptide (human); PPAKRRLELGESG; partner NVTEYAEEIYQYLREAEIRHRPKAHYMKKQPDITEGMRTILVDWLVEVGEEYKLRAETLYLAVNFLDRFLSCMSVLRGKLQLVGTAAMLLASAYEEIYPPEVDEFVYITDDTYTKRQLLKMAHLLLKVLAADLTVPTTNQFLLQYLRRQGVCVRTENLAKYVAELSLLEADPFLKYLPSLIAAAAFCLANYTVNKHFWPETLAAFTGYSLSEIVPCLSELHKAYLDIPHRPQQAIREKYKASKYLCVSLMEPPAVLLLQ
Under “normalised enrichment score”, `PPAKRRLELGESA [G13A]` is recorded as 0.383.
For `PPAKKRLEFGESG [R5K L9F]`, “normalised enrichment score” read 1.65.
For `PPAKRRLELGASG [E11A]`, “normalised enrichment score” read 0.547.
For `PPAKARLELGESG [R5A]`, “normalised enrichment score” read 0.305.
Under “normalised enrichment score”, `PPAKRRAELGESG [L7A]` is recorded as 0.279.
`PPAKRALELGESG [R6A]`: “normalised enrichment score” 0.353.
`APAKRRLELGESG [P1A]`: “normalised enrichment score” 0.626.

Set 4
Target: ABI1, truncated, D143A, DHFR fusion (Arabidopsis thaliana)
Method: DHFR PCA, deep sequencing
Sample: yeast
Setting: methotrexate growth selection, single substitutions
With: (+)-ABA 0.032 µM
Relative to: wild-type fitted maximum
Direction: higher = stronger binding
Parent: PYL1, truncated, DHFR fusion (Arabidopsis thaliana); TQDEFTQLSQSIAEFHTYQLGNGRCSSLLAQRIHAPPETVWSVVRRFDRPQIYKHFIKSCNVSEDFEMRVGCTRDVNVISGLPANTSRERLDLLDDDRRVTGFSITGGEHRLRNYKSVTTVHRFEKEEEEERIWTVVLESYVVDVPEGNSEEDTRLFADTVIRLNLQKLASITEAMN; partner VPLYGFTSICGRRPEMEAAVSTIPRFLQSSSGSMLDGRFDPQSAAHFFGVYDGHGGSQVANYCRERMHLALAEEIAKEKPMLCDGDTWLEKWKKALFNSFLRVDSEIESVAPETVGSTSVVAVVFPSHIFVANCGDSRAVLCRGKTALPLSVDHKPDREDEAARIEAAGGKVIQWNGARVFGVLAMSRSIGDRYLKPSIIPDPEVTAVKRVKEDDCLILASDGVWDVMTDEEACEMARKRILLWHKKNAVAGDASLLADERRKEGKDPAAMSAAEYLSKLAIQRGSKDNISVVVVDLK
Under “relative binding score”, `R24N` is recorded as 3.59%.
For `L20C`, “relative binding score” read 34.7%.
Under “relative binding score”, `E67M` is recorded as 3.15%.
Under “relative binding score”, `N149E` is recorded as 28.5%.
Under “relative binding score”, `T39E` is recorded as 9.45%.
`Y53D` — result for “relative binding score”: -7.73%.
`T154Y` — result for “relative binding score”: -17.5%.
`E174S` — result for “relative binding score”: 1.21%.
Under “relative binding score”, `K54P` is recorded as -7.95%.
`K54W`: “relative binding score” 0.801%.

Set 5
Target: Ras GTPase-activating protein-binding protein 1, full length (G3BP1, Homo sapiens, UniProt Q13283)
UniProt Q13283, sequence (whole entry, looked up): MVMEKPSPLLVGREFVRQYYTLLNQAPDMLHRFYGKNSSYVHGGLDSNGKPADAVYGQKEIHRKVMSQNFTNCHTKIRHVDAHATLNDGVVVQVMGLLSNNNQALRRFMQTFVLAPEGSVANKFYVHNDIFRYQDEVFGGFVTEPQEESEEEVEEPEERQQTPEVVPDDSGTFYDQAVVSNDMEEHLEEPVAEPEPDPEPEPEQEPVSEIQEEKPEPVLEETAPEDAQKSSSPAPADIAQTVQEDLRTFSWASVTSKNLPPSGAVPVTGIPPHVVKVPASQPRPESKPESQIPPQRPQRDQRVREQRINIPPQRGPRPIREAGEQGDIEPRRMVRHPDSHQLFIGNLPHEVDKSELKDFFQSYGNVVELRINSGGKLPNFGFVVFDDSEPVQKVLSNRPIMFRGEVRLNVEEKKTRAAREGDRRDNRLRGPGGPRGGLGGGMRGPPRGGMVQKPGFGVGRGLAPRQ
Method: RNA Bind-n-Seq
Form: RNA
Sample: in vitro
Concentration: 200 nM
Setting: whole 134-nt RNA, ends assumed
With: 150 mM LiCl
Relative to: input library
Direction: higher = stronger binding
All molecules: 7-deaza-guanosine replaces G
Constant ends, left off below: GGGAGUUCUACAGUCCGACGAUC … UGGAAUUCUCGGGUGUCAAGG
`CAAGUCCUGUGCUACACAUCGUAUGUACCGAAUCGGAAAGGUUUGGUUUUUUUGGAAAGUAUUAUGUUACGCCGUUCGGAUCUGCACUUC` gave a log2 enrichment of -0.996.
`CCUGUGCUACACAUCGUAUGUACCGAAUCGGGGUUUUUGGGGAAAAAAAGGGGUUUGGGGAAAGUAUUAUGUUACGCCGUUCGGAUCUGC` gave a log2 enrichment of -1.32.
`UCCUGUGCUACACAUCGUAUGUACCGAAUCAAAUUUUUUUAAAUUUUUUUAAAUUUAAAAAAGUAUUAUGUUACGCCGUUCGGAUCUGCA` has a log2 enrichment of -2.25.
For `UUUCUUCUGCUGCUGCUAGUCAUGAGAUCAAGGUGGGUCUGAGAAUGGCCAUUCAGAGGCCCUGGAUAGUAACCAGGUAAUGGAUGACAC`, the log2 enrichment was -0.0274.
`UAACUUUAGAGGAGGAUCUGAUGGAUAUGGCAGUGGACGUGGAUUUGGGGAUGGCUAUAAUGGGUAUGGAGGAGGACCUGGAGGGGGCAA` gave a log2 enrichment of 0.0999.
With `UGGGAGGUGGAUUUUGUUUAUUUUUUUAGCUCAUUUCCAGGGGUGGGAAUUUUUUUUUAAUAUGUGUCAUGAAUGAAGUUGUUUUUGAAA` the log2 enrichment was -0.095.
The log2 enrichment of `AAGUCCUGUGCUACACAUCGUAUGUACCGAAUCGGUUUUUGGAAAAAGGAAAAAGGAAAGUAUUAUGUUACGCCGUUCGGAUCUGCACUU` is reported as -1.11.
The log2 enrichment of `ACCAUGCAGGUGGGCAAAAUUGGGAAGUGGGGCAAGGGGGGGAUAGGGAGGGGGGUAACACUUUGGGAACAGGUGGUCCCAGGUCGUUUC` is reported as 0.0949.
`AAGUCCUGUGCUACACAUCGUAUGUACCGAAUCGGGUGGGAAAGGGAAAAAAAGGGAAAGUAUUAUGUUACGCCGUUCGGAUCUGCACUU` has a log2 enrichment of 0.233.
`UCCUGUGCUACACAUCGUAUGUACCGAAUCAAAUUUAAACCCCCCCAAAUUUUUUUAAAAAAGUAUUAUGUUACGCCGUUCGGAUCUGCA` gave a log2 enrichment of 1.6.
`GCAGGAAGUAAAAACAAAUGGAAAUGCUUCGGAUAGUGAAAGGGGUGGGGGUUGCUAAGGAAAGGGUGGGAUGGGAGUGGGUAAAGAGUU` has a log2 enrichment of 0.527.

Set 6
Target: Sal-like protein 4, full length isoform B (SALL4, Homo sapiens, UniProt Q9UJQ4-2, residues 1-616)
Method: universal PBM
Form: double-stranded DNA, one strand shown
Sample: in vitro
Concentration: not given
Setting: 8-mer, flanks averaged, mean of replicates
Direction: higher = stronger binding
Construct (chain): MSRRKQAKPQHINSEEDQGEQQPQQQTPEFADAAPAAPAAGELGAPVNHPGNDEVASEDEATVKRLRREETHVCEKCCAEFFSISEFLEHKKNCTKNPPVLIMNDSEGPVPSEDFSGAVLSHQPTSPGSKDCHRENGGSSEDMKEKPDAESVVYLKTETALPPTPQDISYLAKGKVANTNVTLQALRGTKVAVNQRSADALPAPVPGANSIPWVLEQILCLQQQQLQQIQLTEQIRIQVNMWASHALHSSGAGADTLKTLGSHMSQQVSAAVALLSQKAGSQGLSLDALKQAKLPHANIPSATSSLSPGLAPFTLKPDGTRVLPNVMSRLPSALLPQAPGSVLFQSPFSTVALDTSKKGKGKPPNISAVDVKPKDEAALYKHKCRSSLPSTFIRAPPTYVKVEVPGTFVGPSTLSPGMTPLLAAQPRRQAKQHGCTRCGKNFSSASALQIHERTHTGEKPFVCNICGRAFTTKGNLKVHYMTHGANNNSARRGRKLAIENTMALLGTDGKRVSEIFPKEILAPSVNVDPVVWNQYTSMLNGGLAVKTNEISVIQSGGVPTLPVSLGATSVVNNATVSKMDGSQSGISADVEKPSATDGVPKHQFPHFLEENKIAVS
`AATCTCTA` gave an E-score of 0.156.
The E-score of `AGTAAGTC` is reported as -0.0619.
With `ATTGTGGA` the E-score was 0.169.
With `ATACTTTG` the E-score was 0.25.
For `CATAAGGC`, the E-score was 0.0632.
For `CGTAGTTC`, the E-score was -0.137.
The E-score of `AATGAAAG` is reported as 0.198.
`AAAATGGG` has an E-score of 0.11.
`AAATAAAG` has an E-score of 0.164.
`GAATTTCA` gave an E-score of 0.181.
`GACAAAGA` has an E-score of 0.107.
For `TAAGATCA`, the E-score was 0.165.

Mixed results
With `PhoQ, residues 284 288 289 292 302 303 SNSSNI` the fold induction was 0.994 (PhoP, residues 12 14 15 18 19 TPWLV (Escherichia coli, UniProt P23836); Sort-seq, measured: YFP reporter; E. coli; PhoQ-PhoP variant library, with: 10 µM Mg2+; relative to: high Mg2+ state, higher = stronger signaling).

Some of these lines once more (set 1):
With `GGATGTGTCTTAAATAGGGGAGTGCTA` the log fluorescence was -0.102 z-score.
With `AGTCTTCTCCTCTAGGTTCTCGTGCTA` the log fluorescence was 0.131 z-score.
The log fluorescence of `GACGCACTGGGGTATCGGGACGTGCTA` is reported as 0.0733 z-score.
The log fluorescence of `ATAGGACTGCTTCTCCTTTAGTGCTAG` is reported as -0.29 z-score.
